Experimental data from different studies.
Every numbered part comes from another study and shows a few of its results, in no order.
Sequence of UniProt P49336 (whole entry, looked up): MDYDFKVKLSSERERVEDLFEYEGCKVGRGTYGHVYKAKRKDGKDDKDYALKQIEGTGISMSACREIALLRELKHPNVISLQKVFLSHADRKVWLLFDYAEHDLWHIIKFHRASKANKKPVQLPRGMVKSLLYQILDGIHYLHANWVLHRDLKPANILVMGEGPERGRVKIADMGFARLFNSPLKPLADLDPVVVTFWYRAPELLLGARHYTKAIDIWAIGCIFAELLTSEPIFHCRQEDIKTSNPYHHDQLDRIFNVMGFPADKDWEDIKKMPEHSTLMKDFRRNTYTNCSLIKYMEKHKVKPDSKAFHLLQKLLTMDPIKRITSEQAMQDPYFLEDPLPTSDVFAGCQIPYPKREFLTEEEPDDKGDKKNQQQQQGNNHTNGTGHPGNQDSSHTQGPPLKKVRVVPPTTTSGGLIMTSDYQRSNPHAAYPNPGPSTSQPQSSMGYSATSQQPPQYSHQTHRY
Sequence of UniProt P48729 (whole entry, looked up): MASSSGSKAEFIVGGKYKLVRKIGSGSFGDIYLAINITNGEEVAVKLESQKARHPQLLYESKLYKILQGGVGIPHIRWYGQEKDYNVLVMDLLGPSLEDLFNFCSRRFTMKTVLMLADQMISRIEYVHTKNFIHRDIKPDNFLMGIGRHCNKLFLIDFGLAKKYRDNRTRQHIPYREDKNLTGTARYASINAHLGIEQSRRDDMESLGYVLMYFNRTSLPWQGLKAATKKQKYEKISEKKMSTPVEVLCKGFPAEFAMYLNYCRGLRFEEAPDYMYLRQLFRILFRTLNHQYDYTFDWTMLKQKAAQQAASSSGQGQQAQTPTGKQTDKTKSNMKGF
Sequence of UniProt Q15759 (whole entry, looked up): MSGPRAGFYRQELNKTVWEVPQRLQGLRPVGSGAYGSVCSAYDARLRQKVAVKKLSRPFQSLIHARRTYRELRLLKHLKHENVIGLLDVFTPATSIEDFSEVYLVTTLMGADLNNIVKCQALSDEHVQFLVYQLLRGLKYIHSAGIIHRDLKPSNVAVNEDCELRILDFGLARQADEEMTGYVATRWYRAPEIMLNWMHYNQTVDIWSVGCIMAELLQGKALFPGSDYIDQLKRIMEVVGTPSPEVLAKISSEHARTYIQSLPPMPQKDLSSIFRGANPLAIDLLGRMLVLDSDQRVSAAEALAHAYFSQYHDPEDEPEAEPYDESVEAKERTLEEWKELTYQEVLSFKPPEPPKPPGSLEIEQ
Sequence of UniProt P04049 (whole entry, looked up): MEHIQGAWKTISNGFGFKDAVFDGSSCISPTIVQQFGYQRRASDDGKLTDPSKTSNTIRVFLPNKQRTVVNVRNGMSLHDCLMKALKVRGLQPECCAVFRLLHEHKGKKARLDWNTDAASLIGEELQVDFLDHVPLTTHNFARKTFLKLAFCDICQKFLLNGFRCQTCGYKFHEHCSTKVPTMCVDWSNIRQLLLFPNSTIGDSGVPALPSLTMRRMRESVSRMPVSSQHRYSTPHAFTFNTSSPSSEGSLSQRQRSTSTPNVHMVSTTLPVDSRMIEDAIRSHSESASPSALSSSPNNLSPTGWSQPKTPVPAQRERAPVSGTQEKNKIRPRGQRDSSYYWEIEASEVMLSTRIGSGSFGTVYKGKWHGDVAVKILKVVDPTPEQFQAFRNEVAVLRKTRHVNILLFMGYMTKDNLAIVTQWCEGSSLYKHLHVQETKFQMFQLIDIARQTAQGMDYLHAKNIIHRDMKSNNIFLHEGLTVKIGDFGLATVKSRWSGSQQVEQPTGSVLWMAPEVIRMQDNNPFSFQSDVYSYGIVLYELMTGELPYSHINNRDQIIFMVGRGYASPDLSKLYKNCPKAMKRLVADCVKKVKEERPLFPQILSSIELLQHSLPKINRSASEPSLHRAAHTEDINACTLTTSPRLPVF
Sequence of UniProt Q92772 (whole entry, looked up): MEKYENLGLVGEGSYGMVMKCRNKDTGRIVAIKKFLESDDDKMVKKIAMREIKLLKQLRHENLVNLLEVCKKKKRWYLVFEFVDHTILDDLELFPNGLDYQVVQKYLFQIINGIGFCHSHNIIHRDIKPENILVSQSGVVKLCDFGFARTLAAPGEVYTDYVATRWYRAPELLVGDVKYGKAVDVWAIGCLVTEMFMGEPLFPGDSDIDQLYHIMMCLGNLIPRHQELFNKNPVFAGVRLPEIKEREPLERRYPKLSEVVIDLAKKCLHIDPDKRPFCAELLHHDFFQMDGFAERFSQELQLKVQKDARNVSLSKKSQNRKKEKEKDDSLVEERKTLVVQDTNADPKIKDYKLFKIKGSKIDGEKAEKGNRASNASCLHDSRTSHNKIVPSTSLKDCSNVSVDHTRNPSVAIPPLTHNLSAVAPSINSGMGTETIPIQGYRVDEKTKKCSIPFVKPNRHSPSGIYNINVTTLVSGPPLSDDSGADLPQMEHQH
Sequence of UniProt P10721 (whole entry, unmodified, looked up): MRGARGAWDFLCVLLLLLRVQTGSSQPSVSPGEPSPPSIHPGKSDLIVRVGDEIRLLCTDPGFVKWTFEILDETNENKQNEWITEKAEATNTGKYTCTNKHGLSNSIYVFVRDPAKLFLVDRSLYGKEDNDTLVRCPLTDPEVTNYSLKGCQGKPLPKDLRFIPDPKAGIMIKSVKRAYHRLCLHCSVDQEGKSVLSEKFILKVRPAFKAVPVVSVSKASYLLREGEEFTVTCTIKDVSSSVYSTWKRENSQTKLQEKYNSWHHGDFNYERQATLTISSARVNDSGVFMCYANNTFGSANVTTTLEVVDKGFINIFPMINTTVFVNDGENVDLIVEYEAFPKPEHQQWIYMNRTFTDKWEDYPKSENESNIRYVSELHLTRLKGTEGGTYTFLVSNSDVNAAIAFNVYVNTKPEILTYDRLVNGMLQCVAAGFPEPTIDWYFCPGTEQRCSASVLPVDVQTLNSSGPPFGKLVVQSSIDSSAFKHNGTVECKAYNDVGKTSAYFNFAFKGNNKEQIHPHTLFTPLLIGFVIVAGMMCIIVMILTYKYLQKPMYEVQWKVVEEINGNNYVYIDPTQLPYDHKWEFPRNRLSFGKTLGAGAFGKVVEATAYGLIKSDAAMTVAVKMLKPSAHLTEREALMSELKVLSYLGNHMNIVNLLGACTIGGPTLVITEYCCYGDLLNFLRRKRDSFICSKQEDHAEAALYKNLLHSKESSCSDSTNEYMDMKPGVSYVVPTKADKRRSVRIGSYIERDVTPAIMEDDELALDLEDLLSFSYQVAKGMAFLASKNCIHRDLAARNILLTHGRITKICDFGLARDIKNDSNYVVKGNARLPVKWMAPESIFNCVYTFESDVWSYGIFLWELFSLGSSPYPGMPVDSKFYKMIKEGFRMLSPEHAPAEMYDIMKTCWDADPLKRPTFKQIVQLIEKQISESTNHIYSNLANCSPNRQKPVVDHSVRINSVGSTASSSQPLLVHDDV
Sequence of UniProt Q13470 (whole entry, looked up): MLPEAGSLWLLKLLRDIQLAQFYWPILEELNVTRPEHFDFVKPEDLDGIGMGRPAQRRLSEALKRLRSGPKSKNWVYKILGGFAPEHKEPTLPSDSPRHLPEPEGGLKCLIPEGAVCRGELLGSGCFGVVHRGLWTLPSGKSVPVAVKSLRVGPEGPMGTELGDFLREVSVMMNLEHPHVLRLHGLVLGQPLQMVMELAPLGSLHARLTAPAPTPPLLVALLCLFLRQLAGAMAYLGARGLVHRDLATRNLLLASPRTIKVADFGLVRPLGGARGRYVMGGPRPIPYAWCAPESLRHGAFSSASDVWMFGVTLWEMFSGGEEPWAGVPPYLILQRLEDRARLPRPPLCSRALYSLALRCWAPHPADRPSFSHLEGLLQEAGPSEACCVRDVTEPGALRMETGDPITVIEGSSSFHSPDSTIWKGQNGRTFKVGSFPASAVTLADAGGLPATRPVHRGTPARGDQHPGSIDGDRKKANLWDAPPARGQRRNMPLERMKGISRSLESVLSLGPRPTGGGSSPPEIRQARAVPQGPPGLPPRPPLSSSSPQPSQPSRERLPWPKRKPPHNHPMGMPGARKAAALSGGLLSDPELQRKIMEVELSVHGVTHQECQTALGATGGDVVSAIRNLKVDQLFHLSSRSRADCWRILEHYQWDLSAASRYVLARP
Sequence of UniProt P51817 (whole entry, looked up): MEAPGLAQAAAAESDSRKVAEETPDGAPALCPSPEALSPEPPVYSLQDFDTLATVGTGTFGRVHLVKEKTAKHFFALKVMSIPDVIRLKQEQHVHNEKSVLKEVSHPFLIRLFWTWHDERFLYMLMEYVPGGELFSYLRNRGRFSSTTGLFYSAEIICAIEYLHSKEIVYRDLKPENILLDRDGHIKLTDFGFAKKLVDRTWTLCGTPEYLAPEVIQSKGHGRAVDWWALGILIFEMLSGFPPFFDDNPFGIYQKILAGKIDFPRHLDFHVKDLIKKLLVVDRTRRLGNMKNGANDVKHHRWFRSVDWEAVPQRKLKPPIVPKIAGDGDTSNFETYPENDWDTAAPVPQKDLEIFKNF

Series 1 — read-out: enzyme activity; tested at: 1 µM
SMILES: C=CC(=O)N1CCC([C@@H]2CCNc3c(C(N)=O)c(-c4ccc(Oc5ccccc5)cc4)nn32)CC1
It gave 30% for inhibition (Cyclin-dependent kinase-like 2 (CDKL2, Homo sapiens, UniProt Q92772)).
cAMP-dependent protein kinase catalytic subunit PRKX (PRKX, Homo sapiens, UniProt P51817); inhibitor — inhibition: 1%.
The inhibition was 29% (BMP-2-inducible protein kinase (BMP2K, Homo sapiens, UniProt Q9NSY1); inhibitor).
Mitogen-activated protein kinase 11 (MAPK11, Homo sapiens, UniProt Q15759); inhibitor — inhibition: 8%.
For Cyclin-dependent kinase 15 (CDK15, Homo sapiens, UniProt Q96Q40); inhibitor: inhibition read 15%.
The inhibition was 40% (Dual serine/threonine and tyrosine protein kinase (DSTYK, Homo sapiens, UniProt Q6XUX3); inhibitor).
Non-receptor tyrosine-protein kinase TNK1 (TNK1, Homo sapiens, UniProt Q13470); inhibitor — inhibition: 32%.
For Cyclin-dependent kinase 8 (CDK8, Homo sapiens, UniProt P49336); inhibitor: inhibition read 4%.
It gave 11% for inhibition (Tyrosine-protein kinase ABL1, phosphorylated (ABL1, Homo sapiens, UniProt P00519, Y253F); inhibitor).

Series 2 — read-out: cell-free assay; method: competition with immobilised ligand; tested at: 1 µM
SMILES: NS(=O)(=O)c1cc(NC(=O)Cc2ccccc2)ccc1Oc1cccc(Cl)c1
The remaining binding was 100% (RAF proto-oncogene serine/threonine-protein kinase (RAF1, Homo sapiens, UniProt P04049)).
For Tyrosine-protein kinase ABL1, non-phosphorylated (ABL1, Homo sapiens, UniProt P00519): remaining binding read 78%.
The remaining binding was 83% (Mast/stem cell growth factor receptor Kit (KIT, Homo sapiens, UniProt P10721, T670I/V559D)).
For Serine/threonine-protein kinase Nek11 (NEK11, Homo sapiens, UniProt Q8NG66): remaining binding read 100%.
For Tyrosine-protein kinase ABL1, phosphorylated (ABL1, Homo sapiens, UniProt P00519, M351T): remaining binding read 78%.
The remaining binding was 93% (Ephrin type-B receptor 1 (EPHB1, Homo sapiens, UniProt P54762)).
For Casein kinase I isoform alpha (CSNK1A1, Homo sapiens, UniProt P48729): remaining binding read 93%.

Series 3 — read-out: enzyme activity; mode: inhibitor; tested at: 0.5 µM; baseline: control
Target: Mitogen-activated protein kinase kinase kinase 3 (MAP3K3, Homo sapiens, UniProt Q99759)
Sequence of UniProt Q99759 (whole entry, looked up): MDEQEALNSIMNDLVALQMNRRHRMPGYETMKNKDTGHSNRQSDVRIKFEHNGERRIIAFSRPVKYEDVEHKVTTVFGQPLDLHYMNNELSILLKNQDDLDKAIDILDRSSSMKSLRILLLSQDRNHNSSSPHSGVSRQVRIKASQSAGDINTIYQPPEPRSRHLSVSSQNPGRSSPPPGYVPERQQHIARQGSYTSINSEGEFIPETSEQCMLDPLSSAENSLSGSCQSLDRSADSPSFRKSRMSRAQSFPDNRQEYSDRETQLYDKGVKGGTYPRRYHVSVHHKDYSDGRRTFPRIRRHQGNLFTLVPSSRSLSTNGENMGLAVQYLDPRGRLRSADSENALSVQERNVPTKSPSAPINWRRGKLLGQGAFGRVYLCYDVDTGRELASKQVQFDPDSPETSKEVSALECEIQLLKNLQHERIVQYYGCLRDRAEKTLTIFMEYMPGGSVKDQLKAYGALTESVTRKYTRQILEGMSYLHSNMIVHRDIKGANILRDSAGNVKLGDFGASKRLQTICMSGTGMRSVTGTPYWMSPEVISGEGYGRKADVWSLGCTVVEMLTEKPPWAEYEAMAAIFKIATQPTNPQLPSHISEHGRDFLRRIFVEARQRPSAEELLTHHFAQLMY
The remaining activity of `Nc1ccc2ncnc(NCCc3ccc(Oc4ccccc4)cc3)c2c1` is reported as 106%.
The remaining activity of `Oc1ccc(-c2nc(-c3ccncc3)c(-c3ccc(F)cc3)[nH]2)cc1` is reported as 103%.
`Cc1nc(-c2ccccc2)c(-c2ccncc2)o1` gave a remaining activity of 101%.
For `Nc1ncnc2n[nH]c(Nc3ccc(F)cc3)c12`, the remaining activity was 87.6%.
`COc1ccc(CNC(=O)Nc2ncc([N+](=O)[O-])s2)cc1` gave a remaining activity of 87.6%.
For `COc1ccc(C(=O)Nc2sc3c(c2C(N)=O)CCCC3)cc1OC`, the remaining activity was 100%.
`CC(C)[C@H](CO)Nc1nc(Nc2cc(N)cc(Cl)c2)c2ncn(C(C)C)c2n1` has a remaining activity of 100%.
For `CO[C@H]1C[C@@H]2CC[C@@H](C)[C@@](O)(O2)C(=O)C(=O)N2CCCC[C@H]2C(=O)O[C@H]([C@H](C)C[C@@H]2CC[C@@H](O)[C@H](OC)C2)CC(=O)[C@H](C)/C=C(\C)[C@@H](O)[C@@H](OC)C(=O)[C@H](C)C[C@H](C)/C=C/C=C/C=C/1C`, the remaining activity was 101%.
`Cn1sc(=O)n(Cc2ccccc2)c1=O` has a remaining activity of 94.2%.
`CCOC(=O)c1c(C)[nH]c(/C=C2\C(=O)Nc3ccccc32)c1C` has a remaining activity of 92.8%.
The remaining activity of `O=C1NC(=O)C(c2cn(CCCO)c3ncccc23)=C1c1cnccn1` is reported as 88.3%.
For `CN(C)c1ccc(C=C2C(=O)Nc3ccccc32)cc1`, the remaining activity was 104%.
For `COc1ccc(OC)c2c(=S)c3ccccc3[nH]c12`, the remaining activity was 117%.
The remaining activity of `COc1cc2ncnc(Nc3ccc(Oc4ccccc4)cc3)c2cc1OC` is reported as 94.5%.
The remaining activity of `O=C(CCCc1ccc(-c2ccccc2F)cc1)Nc1ccc(O)cc1` is reported as 108%.
For `Cc1ccc(Nc2nccc(N(C)c3ccc4c(C)n(C)nc4c3)n2)cc1S(N)(=O)=O`, the remaining activity was 112%.

Series 4 — method: LC-MS/MS; matrix: plasma
SMILES: COc1ccc(-c2c(Nc3ccccn3)[nH]c3c(C4=CCCCC4)c(-c4ccccc4)nn3c2=O)cc1
The plasma concentration was 91300 ng/mL (refers to: methionine; human cancer patients; 200 mg BID, 4 h, median, cycle 1 day 200).
refers to: S-adenosylmethionine; human cancer patients; 200 mg BID, 4 h, mean, cycle 1 day 200 — plasma concentration: 11.5 ng/mL.
human; oral, 200 mg twice daily, 1 h, median — plasma concentration: 12100 ng/mL.
human; oral, 200 mg twice daily, 1 h, geometric mean — plasma concentration: 12500 ng/mL.
refers to: methionine; human cancer patients; 200 mg BID, 0 h, mean, cycle 1 day 200 — plasma concentration: 74400 ng/mL.
human; oral, 200 mg twice daily, 6 h, mean — plasma concentration: 9760 ng/mL.
The plasma concentration was 1160 ng/mL (human; oral, 50 mg once daily, 1 h, mean).
For refers to: methionine; human cancer patients; QD, dose not given, 2 h, median, cycle 1 day 50: plasma concentration read 89200 ng/mL.
The plasma concentration was 1150 ng/mL (human; oral, 50 mg once daily, 1 h, geometric mean).

Some of these lines once more (series 3):
`CC(C)[C@H](CO)Nc1nc(Nc2cc(N)cc(Cl)c2)c2ncn(C(C)C)c2n1` has a remaining activity of 100%.
For `CO[C@H]1C[C@@H]2CC[C@@H](C)[C@@](O)(O2)C(=O)C(=O)N2CCCC[C@H]2C(=O)O[C@H]([C@H](C)C[C@@H]2CC[C@@H](O)[C@H](OC)C2)CC(=O)[C@H](C)/C=C(\C)[C@@H](O)[C@@H](OC)C(=O)[C@H](C)C[C@H](C)/C=C/C=C/C=C/1C`, the remaining activity was 101%.
